# Measured values from different studies.
# Protocols differ between the studies behind these lines.
SMILES,organism,assay,system,setting,MIC
CCOc1cc(/C=N/NC(=S)Nc2cccc(Cl)c2)ccc1OC(=O)CN1C(=O)CSC1=O,Mycobacterium tuberculosis,Alamar blue,192,,31.6 µM
CN[C@@H]1[C@H](O)[C@H](NC)[C@H]2O[C@]3(O)[C@H](O[C@@H]2[C@H]1O)O[C@H](C)C[C@H]3NC(=O)Cc1cc(Cl)ccn1,Proteus mirabilis,"microbial growth, broth dilution",ATCC25933,,> 200 µg/mL
Nc1ccccc1C(=O)OCC#CCOC(=O)c1ccccc1N,Saccharomyces cerevisiae,"microbial growth, broth dilution",S288C,,> 128 µg/mL
CCC(CO)NCCNC(CC)CO.CCOc1cc(C=NNC(N)=S)ccc1OC(=O)CN1C(=O)CSC1=O,Mycobacterium tuberculosis,growth in combination,192,together with: reference drug at 1/2 MIC,0.5 µg/mL
CN[C@@H]1[C@H](O)[C@H](NC)[C@H]2O[C@]3(O)[C@H](O[C@@H]2[C@H]1O)O[C@H](C)C[C@H]3NC(=O)Cc1ccc(Cl)cn1,Mycobacterium marinum,microbial growth,ATCC927,,1.6 to 3.1 µg/mL
Cc1ccc2nc(C)c(C(=O)C(=O)N(C)C)n2c1,Mycobacterium marinum,microbial growth,,5 days,> 128 µM
CN[C@@H]1[C@H](O)[C@H](NC)[C@H]2O[C@]3(O)[C@H](O[C@@H]2[C@H]1O)O[C@H](C)C[C@H]3NC(=O)Cc1ccccc1,Proteus mirabilis,"microbial growth, broth dilution",ATCC25933,,> 200 µg/mL
Cc1ccc(CNC(=O)Cc2c(C)nc3ccc(C)cn23)cc1,Mycobacterium marinum,microbial growth,,5 days,> 50 µM
CN[C@@H]1[C@H](O)[C@H](NC)[C@H]2O[C@]3(O)[C@H](O[C@@H]2[C@H]1O)O[C@H](C)C[C@H]3NC(=O)Cc1cscn1,Mycobacterium marinum,microbial growth,ATCC927,,3.1 µg/mL
CC[C@H](C)[C@H](NC(=O)[C@H](CCCCN)NC(=O)[C@@H](NC(=O)[C@@H](NC(=O)[C@H](CC(C)C)NC(=O)[C@H](CCCNC(=N)N)NC(=O)[C@@H](NC(=O)[C@H](CC(C)C)NC(=O)[C@H](CCCNC(=N)N)NC(=O)CNC(=O)[C@H](Cc1ccccc1)NC(=O)[C@@H](N)CCCNC(=N)N)[C@@H](C)CC)[C@@H](C)CC)C(C)C)C(=O)N[C@@H](C)C(=O)N[C@@H](CCCNC(=N)N)C(=O)N[C@@H](CCCNC(=N)N)C(=O)N[C@@H](C)C(=O)N[C@@H](Cc1c[nH]cn1)C(=O)N[C@@H](CCCNC(=N)N)C(=O)N[C@@H](C)C(=O)N[C@@H](CCCNC(=N)N)C(=O)N[C@@H](CO)C(=O)N[C@@H](C)C(=O)N[C@H](C(=O)N[C@@H](CCCCN)C(=O)N[C@@H](C)C(=O)N[C@@H](C)C(=O)N[C@@H](CO)C(=O)N[C@@H](CC(N)=O)C(=O)N[C@H](C(=O)N[C@@H](C)C(=O)N[C@@H](C)C(=O)N[C@@H](CC(C)C)C(=O)N[C@@H](C)C(=O)N[C@@H](Cc1c[nH]cn1)C(=O)NCC(=O)N[C@@H](C)C(N)=O)C(C)C)C(C)C,Cryptococcus neoformans,resazurin broth microdilution,,"36 h, 35 °C",≤ 0.064 µM
NNC(=O)c1ccncc1.O=C(CN1C(=O)CSC1=O)Oc1ccc(C=NNC(=S)Nc2cccc(Cl)c2)cc1Cl,Mycobacterium tuberculosis,growth in combination,192,together with: reference drug at 1/2 MIC,0.0312 µg/mL
Cc1ccc(-c2nc3ccc(C)cn3c2CC(=O)NCc2ccc(N(C)C)cc2)cc1,Mycobacterium marinum,microbial growth,,5 days,> 50 µM
CCC(CO)NCCNC(CC)CO.CCOc1cc(C=NNC(=O)c2ccccn2)ccc1OC(=O)CN1C(=O)CSC1=O,Mycobacterium tuberculosis,growth in combination,H37Rv,together with: reference drug at 1/2 MIC,0.5 µg/mL
Cc1ccc(CNC(=O)C(=O)c2c(C)nc3ccc(C)cn23)cc1,Mycobacterium marinum,microbial growth,,5 days,> 128 µM
COc1cc(C=NNC(=O)c2ccncc2)ccc1OC(=O)CN1C(=O)CSC1=O.NNC(=O)c1ccncc1,Mycobacterium tuberculosis,growth in combination,192,together with: reference drug at 1/2 MIC,0.0312 µg/mL
CN[C@@H]1[C@H](O)[C@H](NC)[C@H]2O[C@]3(O)[C@H](O[C@@H]2[C@H]1O)O[C@H](C)C[C@H]3NC(=O)Cc1ccccn1,Proteus mirabilis,"microbial growth, broth dilution",ATCC25933,,> 200 µg/mL
CC[C@H](C)[C@H](NC(=O)[C@H](CCCCN)NC(=O)[C@@H](NC(=O)[C@@H](NC(=O)[C@H](CC(C)C)NC(=O)[C@H](CCCNC(=N)N)NC(=O)[C@@H](NC(=O)[C@H](CC(C)C)NC(=O)[C@H](CCCNC(=N)N)NC(=O)CNC(=O)[C@H](Cc1ccccc1)NC(=O)[C@@H](N)CCCNC(=N)N)[C@@H](C)CC)[C@@H](C)CC)C(C)C)C(=O)N[C@@H](C)C(=O)N[C@@H](CCCNC(=N)N)C(=O)N[C@@H](CCCNC(=N)N)C(=O)N[C@@H](C)C(=O)N[C@@H](Cc1c[nH]cn1)C(=O)N[C@@H](CCCNC(=N)N)C(=O)N[C@@H](C)C(=O)N[C@@H](CCCNC(=N)N)C(=O)N1CCC[C@H]1C(=O)N[C@@H](C)C(=O)N[C@H](C(=O)N[C@@H](CCCCN)C(=O)N[C@@H](C)C(=O)N[C@@H](C)C(=O)N[C@@H](CO)C(=O)N[C@@H](CC(N)=O)C(=O)N[C@H](C(=O)N[C@@H](C)C(=O)N[C@@H](CCC(=O)O)C(=O)N[C@@H](CC(C)C)C(=O)N[C@@H](C)C(=O)N[C@@H](Cc1c[nH]cn1)C(=O)NCC(=O)N[C@@H](CCC(=O)O)C(N)=O)C(C)C)C(C)C,Cryptococcus neoformans,resazurin broth microdilution,,"36 h, 35 °C",≤ 0.062 µM
CN[C@@H]1[C@H](O)[C@H](NC)[C@H]2O[C@]3(O)[C@H](O[C@@H]2[C@H]1O)O[C@H](C)C[C@H]3NC(=O)Cc1ccc(F)cn1,Proteus mirabilis,"microbial growth, broth dilution",ATCC25933,,> 200 µg/mL
CCC(CO)NCCNC(CC)CO.O=C(CN1C(=O)CSC1=O)Oc1ccc(C=NNC(=O)c2ccncc2)cc1Cl,Mycobacterium tuberculosis,growth in combination,192,together with: reference drug at 1/2 MIC,0.5 µg/mL

# A few entries again:
SMILES,organism,assay,system,setting,MIC
CC[C@H](C)[C@H](NC(=O)[C@H](CCCCN)NC(=O)[C@@H](NC(=O)[C@@H](NC(=O)[C@H](CC(C)C)NC(=O)[C@H](CCCNC(=N)N)NC(=O)[C@@H](NC(=O)[C@H](CC(C)C)NC(=O)[C@H](CCCNC(=N)N)NC(=O)CNC(=O)[C@H](Cc1ccccc1)NC(=O)[C@@H](N)CCCNC(=N)N)[C@@H](C)CC)[C@@H](C)CC)C(C)C)C(=O)N[C@@H](C)C(=O)N[C@@H](CCCNC(=N)N)C(=O)N[C@@H](CCCNC(=N)N)C(=O)N[C@@H](C)C(=O)N[C@@H](Cc1c[nH]cn1)C(=O)N[C@@H](CCCNC(=N)N)C(=O)N[C@@H](C)C(=O)N[C@@H](CCCNC(=N)N)C(=O)N[C@@H](CO)C(=O)N[C@@H](C)C(=O)N[C@H](C(=O)N[C@@H](CCCCN)C(=O)N[C@@H](C)C(=O)N[C@@H](C)C(=O)N[C@@H](CO)C(=O)N[C@@H](CC(N)=O)C(=O)N[C@H](C(=O)N[C@@H](C)C(=O)N[C@@H](C)C(=O)N[C@@H](CC(C)C)C(=O)N[C@@H](C)C(=O)N[C@@H](Cc1c[nH]cn1)C(=O)NCC(=O)N[C@@H](C)C(N)=O)C(C)C)C(C)C,Cryptococcus neoformans,resazurin broth microdilution,,"36 h, 35 °C",≤ 0.064 µM
CN[C@@H]1[C@H](O)[C@H](NC)[C@H]2O[C@]3(O)[C@H](O[C@@H]2[C@H]1O)O[C@H](C)C[C@H]3NC(=O)Cc1ccccn1,Proteus mirabilis,"microbial growth, broth dilution",ATCC25933,,> 200 µg/mL
